# Experimental data of several laboratories.
# A part holds a random share of what one study measured. Changes are numbered by the printed parent chain.
# Sequence of UniProt P62837 (whole entry, looked up): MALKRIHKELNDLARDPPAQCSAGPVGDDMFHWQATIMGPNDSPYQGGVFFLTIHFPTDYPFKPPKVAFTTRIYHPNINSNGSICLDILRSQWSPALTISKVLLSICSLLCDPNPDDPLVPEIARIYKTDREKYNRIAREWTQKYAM
# Sequence of UniProt Q9Y2X8 (whole entry, looked up): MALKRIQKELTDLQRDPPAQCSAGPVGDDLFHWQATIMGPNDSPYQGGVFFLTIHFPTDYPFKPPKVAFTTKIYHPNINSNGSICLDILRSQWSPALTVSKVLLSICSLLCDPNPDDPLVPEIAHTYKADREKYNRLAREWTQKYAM
# Sequence of UniProt P62253 (whole entry, looked up): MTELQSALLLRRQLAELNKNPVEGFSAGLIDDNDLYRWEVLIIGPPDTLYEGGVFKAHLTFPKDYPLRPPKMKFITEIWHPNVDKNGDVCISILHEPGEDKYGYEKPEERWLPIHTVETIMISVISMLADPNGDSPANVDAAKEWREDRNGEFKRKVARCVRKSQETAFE

# Study 1 — method: yeast two-hybrid; medium: yeast; notes: mostly zero background; baseline: not given; reading: higher = stronger interaction
# Molecule: FDPPLESKYECPICLMALREAVQTPCGHRFCKACIIKSIRDAGHKCPVDNEILLENQLFP (TRAF6 RING domain (UniProt Q9Y4K3))
target,lacZ reporter activity
UBE2D2 UBC core domain (UniProt P62837),0
UBE2G1 UBC core domain (UniProt P62253),0
UBE2D4 UBC core domain (UniProt Q9Y2X8),0

# Study 2 — method: protein binding microarray; molecule type: double-stranded DNA, one strand shown; medium: in vitro; tested at: not given; baseline: not given; reading: higher = stronger binding
# Target: Histone acetyltransferase KAT6A, winged helix 1, GST fusion (KAT6A, Homo sapiens, UniProt Q92794, residues 1-85)
# Notes: 8-mer, flanks averaged, mean of 2 arrays, mostly near background
# Target sequence (chain): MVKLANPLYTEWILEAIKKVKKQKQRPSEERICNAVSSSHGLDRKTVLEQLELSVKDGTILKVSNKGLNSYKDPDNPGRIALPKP
Strand,E-score
CGAGTGAC,-0.15
TTACAGAA,-0.198
GCGCTTCC,0.403
ATCAGCCC,-0.088
CCATCGGG,0.17
AAGTCTGC,-0.163
GATCTTGA,-0.17
ACAGTTAT,-0.0717
TATAATGA,-0.108
ACATATAC,-0.149
AACAGTAC,0.0364
CCTAAACA,-0.0334
TACTGCCA,-0.038
GATCTTCA,-0.0997
GTCTGACA,0.00153

# Study 3 — method: DHFR PCA, dose-response; medium: yeast; notes: Hill fit, mean, not affinity; with: (+)-ABA, dose series; reading: lower = more sensitive
# Target: ABI1, truncated, D143A, DHFR fusion (Arabidopsis thaliana, UniProt P49597)
# Starting sequence: PYL1, truncated, DHFR fusion (Arabidopsis thaliana, UniProt Q8VZS8); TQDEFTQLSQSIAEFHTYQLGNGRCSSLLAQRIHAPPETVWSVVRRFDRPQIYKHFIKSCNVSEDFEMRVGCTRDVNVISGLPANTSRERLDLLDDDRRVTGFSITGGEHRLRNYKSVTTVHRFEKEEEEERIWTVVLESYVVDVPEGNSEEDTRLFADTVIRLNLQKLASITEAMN
Change,ABA EC50 [µM]
D65N,2.17
I12N,169
R46W,103
F157I,23.9
E128D,1.21
K58D,12.7
N61M,2.27
D144Q,24.5
F15H,2.91
S87C,186
R113W,23.2

# Study 4 — target: CCNA1, cyclin fold, Cln2 fusion (human); method: yeast growth competition, sequencing; medium: yeast; notes: weak parent motif; baseline: not given; reading: higher = stronger binding
# Starting sequence: RB1 docking peptide (human); PKPLKKLRFDIEG
Change,normalised enrichment score
PKPLKKERFDIEG [L7E],0.102
PKPCKKLRFDIEG [L4C],0.415
PKPLKKLRFDIMG [E12M],0.27
PKPLKKLRMDIEG [F9M],0.332
PKFLKKLRFDIEG [P3F],0.048
PKPLKKLREDIEG [F9E],0.00196
PKALKKLRFDIEG [P3A],0.436
PKNLKKLRFDIEG [P3N],0.106
PKPLKKLRFDISG [E12S],0.109
PKKLKKLRFDIEG [P3K],0.659
PKPLMKLRFDIEG [K5M],0.0774
PKPLKKLRFDIED [G13D],0.644
PKPLYKLRFDIEG [K5Y],0.386
PKPLKKRRFDIEG [L7R],0.172
PKPLKKLRFDIEC [G13C],0.351

# For quick reference, copied from above (study 4):
Change,normalised enrichment score
PKPLKKLRFDIMG [E12M],0.27
PKALKKLRFDIEG [P3A],0.436
PKPLYKLRFDIEG [K5Y],0.386
PKFLKKLRFDIEG [P3F],0.048
PKPLKKLRFDIED [G13D],0.644
PKPLMKLRFDIEG [K5M],0.0774
